Literature values that unrelated publications cite.
± marks the error that the study gave.
UniProt Q14012, sequence (whole entry, looked up): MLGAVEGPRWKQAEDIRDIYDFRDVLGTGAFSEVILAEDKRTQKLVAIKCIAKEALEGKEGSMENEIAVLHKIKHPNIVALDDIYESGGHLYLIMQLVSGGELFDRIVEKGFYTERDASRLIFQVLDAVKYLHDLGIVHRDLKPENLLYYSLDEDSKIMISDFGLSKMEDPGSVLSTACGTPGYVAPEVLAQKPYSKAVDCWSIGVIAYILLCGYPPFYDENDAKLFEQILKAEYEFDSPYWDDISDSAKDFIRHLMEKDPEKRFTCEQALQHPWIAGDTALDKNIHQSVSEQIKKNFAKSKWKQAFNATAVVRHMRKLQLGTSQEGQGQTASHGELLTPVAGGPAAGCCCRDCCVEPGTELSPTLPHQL

| Structure (SMILES) | tested on | test | test system | setting | scale | quantity | result |
| --- | --- | --- | --- | --- | --- | --- | --- |
| Nc1cc(C(F)(F)F)c(-c2nc(N3CCOCC3)nc(N3CCOCC3)n2)cn1 | Calcium/calmodulin-dependent protein kinase type 1 (CAMK1, Homo sapiens, UniProt Q14012) | enzyme activity | – | 10 µM | baseline: untreated | remaining activity | 76% |
| Cc1cc(C)c(CNC(=O)c2cc(Cl)c3c(c2C)O[C@@](C)([C@H]2CC[C@H](N(C)C)CC2)O3)c(=O)[nH]1 | – | – | human, plasma | oral, 100 mg single dose, study, geometric mean | – | AUC(0-inf) | 4370 ng·h/mL |
| CC(C)c1nc(N(C)S(C)(=O)=O)nc(-c2ccc(F)cc2)c1/C=C/[C@@H](O)C[C@@H](O)CC(=O)O | – | BCRP substrate | human, plasma | dose not given, together with: pirtobrutinib single dose | – | AUC(0-inf) | 189 ng·h/mL |
| C[C@@H](Oc1ccc(S(C)(=O)=O)cc1C(=O)N1C[C@@H]2C[C@]2(c2cc(C(F)(F)F)on2)C1)C(F)(F)F | – | – | human | oral, 25 mg, tablet, fasted, single dose | – | AUC(0-inf) | 8.85 µM·h |
| Cc1ccccc1CN1C(=O)C2=C(CCN(Cc3ccccc3)C2)N2CCN=C12 | – | – | human | oral, 625 mg, fasting, without rabeprazole | – | AUC(0-inf) | 21300 ng·h/mL |
| COc1cc2c(Oc3ccc4[nH]c(C)cc4c3F)ccnc2cc1OCC1(N)CC1 | – | – | human, fasting | 5 mg | – | AUC(0-inf) | 486 ± 158 ng·h/mL |
| CNCc1cc(-c2ccccc2F)n(S(=O)(=O)c2cccnc2)c1 | – | – | human | 20 mg, single dose, fasted | – | AUC(0-inf) | 116 ng·h/mL |
| Cc1nsc(-c2nnc3n2CCN(C(=O)c2ccc(F)cc2)[C@@H]3C)n1 | – | – | human | oral, 45 mg, single dose, market formulation | – | AUC(0-inf) | 3840 ng·h/mL |
| C[C@H]1CO[C@@H]2Cn3cc(C(=O)NCc4ccc(F)cc4F)c(=O)c(O)c3C(=O)N12 | – | – | human | oral tablet, two 5 mg tablets, geometric mean fasted | – | AUC(0-inf) | 44700 ng·h/mL |

A few entries again:
| Structure (SMILES) | tested on | test | test system | setting | scale | quantity | result |
| --- | --- | --- | --- | --- | --- | --- | --- |
| C[C@@H](Oc1ccc(S(C)(=O)=O)cc1C(=O)N1C[C@@H]2C[C@]2(c2cc(C(F)(F)F)on2)C1)C(F)(F)F | – | – | human | oral, 25 mg, tablet, fasted, single dose | – | AUC(0-inf) | 8.85 µM·h |
